Measured values of several laboratories.
A part holds a random share of what one study measured.

Study 1
Target: Centromere-binding protein 1, full length, N-terminal tag (CBF1, Saccharomyces cerevisiae, UniProt P17106, residues 1-351)
Chain of UniProt P17106 (whole entry, looked up): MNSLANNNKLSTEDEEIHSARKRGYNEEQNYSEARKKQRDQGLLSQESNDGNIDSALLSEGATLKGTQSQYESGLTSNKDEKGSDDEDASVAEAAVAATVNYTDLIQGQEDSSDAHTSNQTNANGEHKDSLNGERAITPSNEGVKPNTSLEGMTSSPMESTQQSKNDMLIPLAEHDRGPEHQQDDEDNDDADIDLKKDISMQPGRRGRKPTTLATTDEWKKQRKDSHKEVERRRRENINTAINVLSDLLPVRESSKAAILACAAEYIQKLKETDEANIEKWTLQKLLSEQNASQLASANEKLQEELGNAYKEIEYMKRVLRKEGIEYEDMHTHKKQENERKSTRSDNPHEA
Technique: protein-binding microarray
Form: double-stranded DNA, one strand shown
Matrix: in vitro
Tested at: 0.8 µM
Setting: whole 60-bp probe, no competitor
Direction: higher = stronger binding
Endpoint: fluorescence intensity
Shared flanks, not repeated: … GTCTTGATTCGCTTGACGCTGCTG
CTAATTGCACGCCTCCTCGTGAGTAGTGACCGTTTC: 764 a.u.
GAAACAATATCGCGCTACGTGCGTTTTTTGGTCTAG: 834 a.u.
CTACTAAGCCCTTTACACGTTATCTGTGATCCTTTC: 554 a.u.
CCTAACTACTATACACGTGCGACATAGCTTCGTACA: 4900 a.u.
CTAGTGAGAGACGGTCATCAGATTTAGTTGGAGTTC: 559 a.u.
CTATCTATTTTGATGAACATCAGGAATTGAAACTTC: 571 a.u.
GAACGTAATAGGTATCACGCTATTTACTCTTGCTAG: 863 a.u.
GAAAAAGCACATGCTATCGTGTCATCATTTCGTTAG: 782 a.u.
GAAGCAGTTAATCTAAACCTGATGCCCACAAAGTAG: 550 a.u.
CTACGTTGTGGGCACCACCACTCACAGTATCCTTTC: 496 a.u.
CTAAATGCACATTTGCACGTTCTAATAATGAAGTTC: 658 a.u.
GAAAAAGCAGTTTCATACGTGCCACAGCTTTGGTAG: 519 a.u.
GAATAAATCACTTTACACGTTCTCGAGAACAGTTAG: 526 a.u.
CTATTGTTCTGAAATCAGGAGAATTAGAGTAGGTTC: 569 a.u.
CTACAGAAAACTTAGATCGTGACAGCAAATTAATTC: 1440 a.u.
CCTAACTACTATAGCGTCACCATATAGCTTCGTACA: 528 a.u.
GAATGTAGTGTCATTCACGTTTTCTGGGCGTTCTAG: 711 a.u.
CCTAACTACTATAGTAATCTGATATAGCTTCGTACA: 514 a.u.
GAACTAGTGTCGTTGTGCGTGATTTTTCACTTTTAG: 577 a.u.

Study 2
Target: RNA binding protein fox-1 homolog 2, RRM domain, GST-SBP tag (RBFOX2, Homo sapiens, UniProt O43251-10, residues 100-194)
Technique: RNA Bind-n-Seq
Form: RNA
Matrix: in vitro
Tested at: 365 nM
Setting: natural RNA segment, single round, ends assumed
Reference: no-protein control
Direction: higher = stronger binding
Endpoint: RBNS enrichment (R)
Shared flanks, not repeated: GGGAGUUCUACAGUCCGACGAUC … UGGAAUUCUCGGGUGCCAA
Target sequence (chain): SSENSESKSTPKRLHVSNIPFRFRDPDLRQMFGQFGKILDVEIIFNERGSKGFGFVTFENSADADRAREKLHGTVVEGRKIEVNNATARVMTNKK
GUUUUGUUUAGAGCAGUUAACAUCUGAAGUGUCUAAUGCAUUAACUUUUGUAAGGUACUGAAUACUUAAUAUGUGGGAAACCCUUUUGCGUGGUCCUUAGGCUUACAAUG: 0.308
CUGUUAGUGUGAUCUGUGGAGAAUGUACAGAACUUAACUACAUCAAUAAACACUUUAACGUCCCCUGGCACCUUGUGUUCCUGACCAUGGCUUCGAUCUAUGCUGAUGGA: 1.24
AAUUCAUUUUUAUGAAUAAAUCUCUUCUUUCUCAUGGUAAAUGUGGCUUGUGCCACUCAAACACUAGUGAAAGGGUAUGUACAACCGCAACAUCAGGCCAGGACACCAUU: 0.3
CCAAUUCUUACUGUUCAGGUUUGAUGUGGAAUCACAGCUGCAGUGAUAUAUAUUUUUUAUCAGUGCUUGGUUGGUUUUAAAUAAAGUGCACGCUAUUUUAUUAUCUUGUU: 3.93
GAGGCAACACUGUUCCGUUUGCACAUGAAGGACCACCACUCACCCCUCCCCCCAGGACCACCCAGGCCCACAUCCACCGGCUUCCUCAGCAGAUGCUGGGGUAUGGCCUC: 0.452
AUAGCCUCCUGCACAGUAGCCUCUCCUUCCUGUCACCAAAACAGUUUUAGGUCUGCUGAAGUCUGGUGUUCUUUGCUCCUUCUGCAAUCUUGAAAUUGGGGUUUGCUUUA: 0.34
AAAGAAUUCGGUUGAAAAAAUAGAUCCAAUCAGUUUAUACCCUAGUUAGUGUUUUGCCUCACCUAAUAGGCUGGGAGACUGAAGACUCAGCCCGGGUGGGGCUGCAGAAA: 0.448
GUACUCUACUGGCAGGAUGCAGUUUUAAAUUUUAUGCCAUCAGUUAUUUAUUCUUGUUUAUUCAAAUGACUGCAAUAACAAUGAUUCAUUCAUUAAUGUUAAGGCUAAUA: 0.349

Study 3
Target: Interferon regulatory factor 3, full length, phosphomimetic (IRF3, Homo sapiens, UniProt Q14653, residues 1-427, S386D/S396D/S398D/S402D/T404D/S405D)
Technique: protein-binding microarray
Form: double-stranded DNA, one strand shown
Matrix: in vitro
Tested at: 2540 nM top
Setting: 60-bp whole probe
Together with: salmon DNA 0.4 mg/ml
Reference: random background probes
Direction: higher = stronger binding
Endpoint: fitted relative affinity
Shared flanks, not repeated: GCCTAGCAC … GTCTTGATTCGCTTGACGCTGCTG
Construct (chain): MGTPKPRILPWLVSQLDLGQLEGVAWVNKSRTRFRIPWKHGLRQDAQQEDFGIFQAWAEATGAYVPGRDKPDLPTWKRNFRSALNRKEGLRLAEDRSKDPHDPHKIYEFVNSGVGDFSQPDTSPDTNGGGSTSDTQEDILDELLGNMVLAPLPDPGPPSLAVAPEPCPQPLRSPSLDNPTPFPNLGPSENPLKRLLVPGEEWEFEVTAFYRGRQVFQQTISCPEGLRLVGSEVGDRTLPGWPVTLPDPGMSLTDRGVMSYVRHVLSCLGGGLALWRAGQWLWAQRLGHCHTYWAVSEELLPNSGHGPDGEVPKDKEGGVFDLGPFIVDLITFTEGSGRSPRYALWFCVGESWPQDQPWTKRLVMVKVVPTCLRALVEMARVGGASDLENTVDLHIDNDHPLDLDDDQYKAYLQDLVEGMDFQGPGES
TGAGGTATCCTTTTCCTTTAGTGCTAG: 7.92 z-score
TTAGCACTGCTACTGCTTTAGTGCTAG: -0.746 z-score
TTAGATTTCGGGACTGGATGAGTGCTA: 1.36 z-score
GACGAACTGGGGTCTGGAGACGTGCTA: -0.716 z-score
GATCCTTCCCCTCTAGGTTCGTGCTAG: 2.19 z-score
GACGATCTCATTCTCGAGACGTGCTAG: 1.73 z-score
TTAGGACTGGGTCTAGGTTAGTGCTAG: -1.1 z-score
GACGAACTGGGGACTTGAGACGTGCTA: -0.385 z-score
GACGGTATCGAGTATCGGGACGTGCTA: 0.98 z-score
TTAGTACTGAGTTTCGATTAGTGCTAG: 2.63 z-score
TCACTTTTCTTTTCTTTACTGTGCTAG: 5.65 z-score
TTATAACTGAGTTTCGATTAGTGCTAG: 2.75 z-score
TCATCTCCCAGACTGGAGTGGTGCTAG: 0.831 z-score
TCATTAATGCTTCTGGGACTGTGCTAG: -0.0887 z-score
TTAGGTATCGGTCTCGGTTGGTGCTAG: 4.25 z-score
TTCTCTAACCTCTCTAATAAAGTGCTA: 1.25 z-score
TCAAATTTGGAAACCGAACTGTGCTAG: 1.53 z-score
TATTACCTCATCTTTCCCTGCGTGCTA: 1.22 z-score
CACGGTATCCTACTGCTGACGTGCTAG: 2.47 z-score

Study 4
Target: Histone acetyltransferase KAT6A, winged helix 2, GST fusion (KAT6A, Homo sapiens, UniProt Q92794, residues 85-181)
Technique: protein binding microarray
Form: double-stranded DNA, one strand shown
Matrix: in vitro
Tested at: not given
Setting: 8-mer, flanks averaged, mean of 2 arrays, mostly near background
Reference: not given
Direction: higher = stronger binding
Endpoint: E-score
Target sequence (chain): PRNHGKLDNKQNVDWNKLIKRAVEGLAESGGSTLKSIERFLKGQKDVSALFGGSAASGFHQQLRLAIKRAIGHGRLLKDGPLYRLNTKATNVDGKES
AGCGTCTC: -0.0766
CACTCGGG: 0.175
AAAGCCCG: -0.066
GATCTAAC: -0.0121
AACTGCCA: -0.0654
CGTGTCAC: 0.115
AGAATAGA: -0.057
GCGAGCAC: -0.013
CTCGATAA: 0.027
GTAGCTAA: -0.187
CATCGAAA: 0.097
CTCCAGAC: 0.145
GCCGGGAC: 0.247
CAATCCGA: 0.181
AGCCTTCG: -0.0223
CCCTTATC: -0.104
TAGGGGCA: -0.117
CGCATGGC: 0.229
CCGGGGCC: 0.148
